Published values from different studies.
Every numbered part comes from another study and shows a few of its results, in no order. Substitutions count along the parent as printed.

Sample 1
Target: CCNE1, cyclin fold, Cln2 fusion (human)
Technique: yeast growth competition, sequencing
Matrix: yeast
Setting: weak parent motif
Baseline: not given
Direction: higher = stronger binding
Parent: ORC1 docking peptide (human); PRARKRLELGNLG
For `PRARKRLELGRLG [N11R]`, “normalised enrichment score” read 0.634.
For `PRARKPLELGNLG [R6P]`, “normalised enrichment score” read 0.209.
`PRARKRLCLGNLG [E8C]`: “normalised enrichment score” -0.171.
`PRWRKRLELGNLG [A3W]` — result for “normalised enrichment score”: 0.506.
`PRARKRLELPNLG [G10P]` — result for “normalised enrichment score”: -0.483.
`PRARKSLELGNLG [R6S]`: “normalised enrichment score” -0.0779.

Sample 2
Target: TAR DNA-binding protein 43, full length, His tag (TARDBP, Homo sapiens, UniProt Q13148, residues 1-414)
Technique: RNA Bind-n-Seq
Form: RNA
Matrix: in vitro
Tested at: 20 nM
Setting: 6-mer, flanks averaged, single round
Added: 150 mM LiCl
Baseline: input library
Direction: higher = stronger binding
`CAGCAU`: “6-mer enrichment (R)” 0.87.
`CGGGUU`: “6-mer enrichment (R)” 0.991.
For `UAUAUU`, “6-mer enrichment (R)” read 1.11.
`GCCCAG` — result for “6-mer enrichment (R)”: 0.973.
For `UAUUUG`, “6-mer enrichment (R)” read 1.21.
`AGAGUC`: “6-mer enrichment (R)” 0.861.

Sample 3
Target: Interferon regulatory factor 5, full length, phosphomimetic (IRF5, Homo sapiens, UniProt Q13568-2, residues 1-514, K96S/S451D/S453D/S456D/S462D)
Technique: protein-binding microarray
Form: double-stranded DNA, one strand shown
Matrix: in vitro
Tested at: 250 nM
Setting: 60-bp whole probe
Added: salmon DNA 0.4 mg/ml
Baseline: random background probes
Direction: higher = stronger binding
Constant ends, left off below: GCCTAGCAC … GTCTTGATTCGCTTGACGCTGCTG
`CTAGGTTTCGACTATCGGTTAGTGCTA` has a log fluorescence of 9.21 z-score.
The log fluorescence of `TTAGCTCTCAGTTTCGATTAGTGCTAG` is reported as 9.5 z-score.
With `TTAGGTTTCGGTATAGGTTAGTGCTAG` the log fluorescence was 10.8 z-score.
The log fluorescence of `GACGGAATCGGTTTCGGGACGTGCTAG` is reported as 5.01 z-score.
`GACGAACTGGGGCATCGAGACGTGCTA` has a log fluorescence of -0.455 z-score.
The log fluorescence of `TTAGGTATCGGACGGGGTTAGTGCTAG` is reported as 1.29 z-score.
`TATAAATTATCTTTAATCCTGTGCTAG` has a log fluorescence of 0.67 z-score.
The log fluorescence of `TCACCTTGAACTTTGGCACTGTGCTAG` is reported as 0.108 z-score.
With `TTCGGTTTCGGTTTCGGTTAGTGCTAG` the log fluorescence was 12.4 z-score.
`TCATCTTTCCTCACCATACTGTGCTAG` gave a log fluorescence of 0.956 z-score.
For `TCATTTGTTTTTTTCTAACTGTGCTAG`, the log fluorescence was 1.44 z-score.
`GACGGTCTCCCTTTCCTGACGTGCTAG` has a log fluorescence of -0.156 z-score.

Single results of other studies
With `PhoQ, residues 284 288 289 292 302 303 SSYNSA` the fold induction was 12 (PhoP, residues 12 14 15 18 19 GHCSL (Escherichia coli, UniProt P23836); Sort-seq, item: YFP reporter; E. coli; PhoQ-PhoP variant library, added: 10 µM Mg2+; baseline: high Mg2+ state, higher = stronger signaling).

Excerpt of the above (sample 3):
For `TCATTTGTTTTTTTCTAACTGTGCTAG`, the log fluorescence was 1.44 z-score.
With `TTCGGTTTCGGTTTCGGTTAGTGCTAG` the log fluorescence was 12.4 z-score.
The log fluorescence of `TCACCTTGAACTTTGGCACTGTGCTAG` is reported as 0.108 z-score.
`GACGGTCTCCCTTTCCTGACGTGCTAG` has a log fluorescence of -0.156 z-score.
